Experimental data pooled from the literature.
Each line is one published result; not all experiments were run side by side. Numbers after ± are the reported error.

For `C=Cc1cc(O)cc2nc(-c3ccc(O)c([76Br])c3)oc12`, the tissue uptake was 0.15 ± 0.05 %ID/g (female C57BL/6 mouse, lung; 3 h, high dose, with: estradiol 20 µg blocking).
With `N=C(N)NCc1ccc(C(=O)NCCCC[C@H](NC(=O)N[C@@H](CCC(=O)O)C(=O)O)C(=O)O)cc1[211At]` the tissue uptake was 0.88 ± 0.13 %ID/g (SCID mouse, PC-3 xenografts, thyroid; 21 h).
With `O=C(O)CC[C@H](NC(=O)O[C@@H](CCCCNC(=O)c1ccc([18F])cc1)C(=O)O)C(=O)O` the tissue uptake was 0.18 ± 0.03 %ID/g (mouse, PC-3 PIP/flu xenografts, large intestine; 90 min).
`N=C(N)NCc1ccc(C(=O)NCCCC[C@H](NC(=O)CCCCCCC(=O)NCCCC[C@H](NC(=O)N[C@@H](CCC(=O)O)C(=O)O)C(=O)O)C(=O)O)cc1[131I]` gave a tissue uptake of 110 ± 37 %ID/g (SCID mouse, PC-3 xenografts, kidneys; 2 h).
`COc1cc2ncnc(Oc3cccc(N[11C](=O)Nc4cc(C(C)(C)C(F)(F)F)on4)c3)c2cc1OC` gave a tissue uptake of 3.44 ± 0.22 %ID/g (Balb/c nude mouse, female, A375 melanoma xenograft, large intestine; 6.6 MBq, 60 min).
`CC[C@H](C)[C@H](NC(=O)[C@@H](Cc1c[nH]c2ccccc12)NC(=O)[C@@H]1CCCN1C(=O)[C@H](CCCCN)NC(=O)[C@H](CCCCN)NC(=O)CCNC(=O)CCNC(=O)CN1CCN(CC(=O)O)CCN(CC(=O)O)CCN(CC(=O)O)CC1)C(=O)N[C@@H](C[Si](C)(C)C)C(=O)O` [gallium-68 labelled] has a tissue uptake of 30.1 ± 18.4 %ID/g (mouse, HT-29 xenograft, nude, kidneys; 90 min, ex vivo biodistribution, unblocked).
Under tissue concentration, `COC(=O)C[C@](O)(CCCC(C)(C)OC(C)=O)C(=O)O[C@@H]1C(OC)=C[C@]23CCCN2CCc2cc4c(cc2[C@H]13)OCO4` is recorded as “not detected” (CD1 mouse, brain; oral, 1 mg/kg, 2 h, below quantification limit 1.00 ng/mL).
The tissue uptake of `N=C(N)NCc1ccc(C(=O)NCCCC[C@H](NC(=O)N[C@@H](CCC(=O)O)C(=O)O)C(=O)O)cc1[131I]` is reported as 0.03 ± 0.02 %ID/g (SCID mouse, PC-3 xenografts, muscle; 21 h).
`CN[C@](C)(C[18F])C(=O)O` has a tissue uptake of 11 ± 3.3 %ID/g (SCID mouse DU-145 xenograft, spleen; 15 min, post injection).

Excerpt of the above:
Under tissue concentration, `COC(=O)C[C@](O)(CCCC(C)(C)OC(C)=O)C(=O)O[C@@H]1C(OC)=C[C@]23CCCN2CCc2cc4c(cc2[C@H]13)OCO4` is recorded as “not detected” (CD1 mouse, brain; oral, 1 mg/kg, 2 h, below quantification limit 1.00 ng/mL).
